{"data": "Published values from different studies", "note": "Numbered parts are unrelated; each lists some results of a single study. Changes are numbered by the printed parent chain."}
{"data": "Series 1", "target": "RNA binding protein fox-1 homolog 2, RRM domain, GST-SBP tag (RBFOX2, Homo sapiens, UniProt O43251-10, residues 100-194)", "method": "RNA Bind-n-Seq", "form": "RNA", "sample": "in vitro", "tested at": "365 nM", "setting": "natural RNA segment, single round, ends assumed", "reference": "no-protein control", "direction": "higher = stronger binding", "shared flanks, not repeated": "GGGAGUUCUACAGUCCGACGAUC … UGGAAUUCUCGGGUGCCAA", "Target sequence (chain)": "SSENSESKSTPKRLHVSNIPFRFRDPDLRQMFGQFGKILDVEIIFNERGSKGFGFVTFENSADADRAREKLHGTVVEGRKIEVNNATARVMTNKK"}
{"Sequence": "GGUCUCAUCUGUAAGCUGCUACAGCCCAGAUGAACUCUGCCAGCCGCCAGUGCAUCCAGUACAGCGCCUGCCAUCUUGUGCAAUGUGCAACCCUGGGAUGUGAGCCCUGC", "RBNS enrichment (R)": 0.219}
{"Sequence": "ACGGGGCAUAUUUAAGGGGGCAUCUUUGUGUAAAAGAUGCAUGGAGUCAGGAGAAAACCACCUUCAUAAACUGCUCUGUGCAAAGAGGAAUAAAACAUUUUUUCCAAACU", "RBNS enrichment (R)": 0.296}
{"Sequence": "AUGCACCGUUUUGAUGCCCAUGCAACAGUGAGGAAGAAAAACCCUCGAGACAUUUUUUCUGUACUCAUAUUUAGAUUCACAAUGGUUGUGUAUCUCUAUAAUGUGAAAUA", "RBNS enrichment (R)": 0.492}
{"Sequence": "CCUCUUGUUCUGAAAGGGAUUUCACAUCUUCAGCGUAGCUUCAGUACAUCAUCGGAGGAGUCUGCUGUCCCUAACACAGAGGGAGACCUCGCUUUCCUACCCCAAGCAAG", "RBNS enrichment (R)": 0.355}
{"Sequence": "GUCCUUGAAAGUGGACUGUUCUCAGGCUUGACCUGCCCCACCCCAUCCCCGCGGUUGAGGCUGUGGGGGCAGCAGAUCAGGAGCCCACUGAUAAGGGGCCCUAGGGUACA", "RBNS enrichment (R)": 0.148}
{"Sequence": "GCAAGCUCCACCUCCCAGGUUCACGCCAUUCUCCUGCCUCAGCCUCCCUAGUAGUUGGGACUACAGGCGCCCGCCACCAUGCUCAGCUAAUUUUUUGUAUUUUUAGUAGA", "RBNS enrichment (R)": 0.766}
{"Sequence": "GCAGCUUUUUUCCUCAAAAGUAACCUGUUCCUCUUUGGAAUAGCACAUUUUAGGGGCAUGGUUAAUACCUGAGAUUUUUACUCAGUAAAUCCUGAUGGUUACUGUGUGUA", "RBNS enrichment (R)": 0.243}
{"Sequence": "UGUGUGCUCAUUCUUAGAGUGAAGACCCUGAAAGGUAUCCCUUUGCAGCCUGUCUCCUGUUUUGAGCCCUUUAGGGGUAACUCAUUUGUAAAACCACCAGCCUGAGCUCA", "RBNS enrichment (R)": 0.272}
{"data": "Series 2", "target": "Phosphate system positive regulatory protein PHO4, full length, GST-tagged (PHO4, Saccharomyces cerevisiae, UniProt P07270, residues 1-312)", "method": "competition protein-binding microarray", "form": "double-stranded DNA, one strand shown", "sample": "in vitro", "tested at": "2 µM", "setting": "whole 60-bp probe, lowest competitor level", "added": "Cbf1 competitor, 0.05 µM", "direction": "higher = stronger binding", "shared flanks, not repeated": "… GTCTTGATTCGCTTGACGCTGCTG", "Residues (chain)": "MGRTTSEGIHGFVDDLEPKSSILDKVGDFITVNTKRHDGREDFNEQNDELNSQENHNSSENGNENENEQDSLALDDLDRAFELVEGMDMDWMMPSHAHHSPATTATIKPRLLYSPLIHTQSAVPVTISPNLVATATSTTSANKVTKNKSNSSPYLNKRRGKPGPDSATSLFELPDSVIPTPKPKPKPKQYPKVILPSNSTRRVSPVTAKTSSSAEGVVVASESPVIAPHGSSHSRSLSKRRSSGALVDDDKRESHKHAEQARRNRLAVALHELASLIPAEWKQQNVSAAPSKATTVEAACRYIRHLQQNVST"}
{"Sequence": "CTTTCCCGATCTTGCCGTGTGGGTGTAGCACATTTG", "fluorescence intensity [a.u.]": 6140}
{"Sequence": "ACTTGGCAGTAAGAACACGTGTCGGTACCGGAGCGG", "fluorescence intensity [a.u.]": 17100}
{"Sequence": "AAATTACTAAGTTTTCACGTGAATTACCCCGTATGA", "fluorescence intensity [a.u.]": 10100}
{"Sequence": "GGAAGGTACACAAGTCACATGGCAACTGGCTAGGAT", "fluorescence intensity [a.u.]": 10300}
{"Sequence": "CTTATCTCGAGGAGTAACGTGGGTAGTTTGTTGGTC", "fluorescence intensity [a.u.]": 10800}
{"Sequence": "GCCAAAGTGGTCTTTCACATGCTTACCTACCCGCTA", "fluorescence intensity [a.u.]": 5740}
{"Sequence": "CTATTTCCGTTACCCGCCGTGCAATACAGCATCGCT", "fluorescence intensity [a.u.]": 6550}
{"Sequence": "TTGAGATACCTCAGTGATGTGGCACAGCGTAAGGAG", "fluorescence intensity [a.u.]": 5490}
{"data": "Series 3", "target": "Hepatocyte nuclear factor 3-beta, forkhead domain (FOXA2, Homo sapiens, UniProt Q9Y261, residues 142-269)", "method": "protein-binding microarray", "form": "double-stranded DNA, one strand shown", "sample": "in vitro", "tested at": "not given", "setting": "k-mer, scored over probes, only values ≥0.25", "direction": "higher = stronger binding", "Residues (chain)": "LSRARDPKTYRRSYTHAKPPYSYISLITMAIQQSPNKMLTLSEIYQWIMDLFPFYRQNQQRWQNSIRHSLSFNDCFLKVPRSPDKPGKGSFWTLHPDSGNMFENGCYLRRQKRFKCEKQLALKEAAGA"}
{"Sequence": "CATAGTAA", "E-score": 0.271}
{"Sequence": "AATATAGG", "E-score": 0.254}
{"Sequence": "AACAATGT", "E-score": 0.361}
{"Sequence": "CTTATAAC", "E-score": 0.347}
{"Sequence": "ATTGTTCA", "E-score": 0.326}
{"Sequence": "GATGTTTA", "E-score": 0.322}
{"Sequence": "ACTTTACT", "E-score": 0.261}
{"Sequence": "TAGGATAA", "E-score": 0.282}
{"data": "Single results of other studies", "starting sequence": "viral docking peptide; PGASRRLFGSSAD"}
{"Substitution": "L7A", "target": "CCND2, cyclin fold, Cln2 fusion (human)", "test": "yeast growth competition, sequencing", "system": "yeast", "setting": "weak parent motif", "how to read": "reference: not given, higher = stronger binding", "endpoint": "normalised enrichment score", "value": 0.115}
{"note": "Repeated from above (series 2):"}
{"Sequence": "GCCAAAGTGGTCTTTCACATGCTTACCTACCCGCTA", "fluorescence intensity [a.u.]": 5740}
{"Sequence": "CTATTTCCGTTACCCGCCGTGCAATACAGCATCGCT", "fluorescence intensity [a.u.]": 6550}
